Measurements pooled from the literature.
A part holds a random share of what one study measured.
UniProt Q00535, sequence (whole entry, looked up): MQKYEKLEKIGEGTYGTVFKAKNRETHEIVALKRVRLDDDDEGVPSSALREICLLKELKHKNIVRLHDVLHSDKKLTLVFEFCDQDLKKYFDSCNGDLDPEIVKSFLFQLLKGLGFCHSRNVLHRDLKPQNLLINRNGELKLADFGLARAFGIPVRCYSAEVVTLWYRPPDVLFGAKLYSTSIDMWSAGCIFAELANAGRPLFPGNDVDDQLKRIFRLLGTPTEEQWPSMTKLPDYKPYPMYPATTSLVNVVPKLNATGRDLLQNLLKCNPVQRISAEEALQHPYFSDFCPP
UniProt P27361, sequence (whole entry, looked up): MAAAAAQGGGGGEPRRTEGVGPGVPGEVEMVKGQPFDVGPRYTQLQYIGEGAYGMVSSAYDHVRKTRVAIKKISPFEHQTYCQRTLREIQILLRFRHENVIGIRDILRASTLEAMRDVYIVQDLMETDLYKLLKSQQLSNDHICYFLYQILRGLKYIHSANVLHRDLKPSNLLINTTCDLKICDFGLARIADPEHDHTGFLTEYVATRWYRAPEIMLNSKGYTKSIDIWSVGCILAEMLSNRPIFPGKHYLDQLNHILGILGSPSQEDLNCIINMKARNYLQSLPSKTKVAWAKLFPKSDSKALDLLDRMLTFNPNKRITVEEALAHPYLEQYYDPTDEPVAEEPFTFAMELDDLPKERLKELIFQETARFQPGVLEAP
UniProt O00141, sequence (whole entry, looked up): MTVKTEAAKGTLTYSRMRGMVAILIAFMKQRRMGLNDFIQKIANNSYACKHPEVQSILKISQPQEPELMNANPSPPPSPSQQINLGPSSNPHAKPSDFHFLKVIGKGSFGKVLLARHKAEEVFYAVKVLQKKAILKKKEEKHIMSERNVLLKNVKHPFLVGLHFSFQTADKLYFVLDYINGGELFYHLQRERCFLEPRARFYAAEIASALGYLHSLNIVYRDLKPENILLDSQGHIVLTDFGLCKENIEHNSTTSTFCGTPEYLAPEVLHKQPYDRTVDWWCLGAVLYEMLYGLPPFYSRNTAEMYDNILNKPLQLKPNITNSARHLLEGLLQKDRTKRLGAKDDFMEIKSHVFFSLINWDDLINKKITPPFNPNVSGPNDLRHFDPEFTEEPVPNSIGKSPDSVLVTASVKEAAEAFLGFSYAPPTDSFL
UniProt Q05397, sequence (whole entry, looked up): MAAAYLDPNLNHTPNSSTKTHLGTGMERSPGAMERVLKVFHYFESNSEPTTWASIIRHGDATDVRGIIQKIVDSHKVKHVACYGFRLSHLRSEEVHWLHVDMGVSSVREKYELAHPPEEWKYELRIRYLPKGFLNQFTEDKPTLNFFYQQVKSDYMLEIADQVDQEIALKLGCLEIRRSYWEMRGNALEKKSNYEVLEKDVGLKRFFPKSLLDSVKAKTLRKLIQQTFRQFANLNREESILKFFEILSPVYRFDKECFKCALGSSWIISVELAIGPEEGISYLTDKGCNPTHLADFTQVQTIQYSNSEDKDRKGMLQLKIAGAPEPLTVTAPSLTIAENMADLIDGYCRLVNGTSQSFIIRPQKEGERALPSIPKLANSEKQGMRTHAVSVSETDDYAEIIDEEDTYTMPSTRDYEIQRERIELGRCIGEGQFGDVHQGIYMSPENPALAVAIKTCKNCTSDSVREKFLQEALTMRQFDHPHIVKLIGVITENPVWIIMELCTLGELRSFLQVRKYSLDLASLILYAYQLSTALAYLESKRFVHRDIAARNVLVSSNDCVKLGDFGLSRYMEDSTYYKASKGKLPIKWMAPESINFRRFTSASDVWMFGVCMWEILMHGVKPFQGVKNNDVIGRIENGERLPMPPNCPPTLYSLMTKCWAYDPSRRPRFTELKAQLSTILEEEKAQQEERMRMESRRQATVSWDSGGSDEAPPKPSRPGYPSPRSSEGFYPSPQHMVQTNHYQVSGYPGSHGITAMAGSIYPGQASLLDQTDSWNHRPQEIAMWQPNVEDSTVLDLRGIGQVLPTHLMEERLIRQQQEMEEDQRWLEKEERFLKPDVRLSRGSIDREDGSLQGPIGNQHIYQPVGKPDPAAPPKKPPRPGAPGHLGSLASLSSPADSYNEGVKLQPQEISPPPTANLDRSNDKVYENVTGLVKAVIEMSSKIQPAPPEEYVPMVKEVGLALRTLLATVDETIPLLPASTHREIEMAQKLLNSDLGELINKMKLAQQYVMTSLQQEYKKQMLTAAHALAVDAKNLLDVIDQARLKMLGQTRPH
UniProt Q9NS67, sequence (whole entry, looked up): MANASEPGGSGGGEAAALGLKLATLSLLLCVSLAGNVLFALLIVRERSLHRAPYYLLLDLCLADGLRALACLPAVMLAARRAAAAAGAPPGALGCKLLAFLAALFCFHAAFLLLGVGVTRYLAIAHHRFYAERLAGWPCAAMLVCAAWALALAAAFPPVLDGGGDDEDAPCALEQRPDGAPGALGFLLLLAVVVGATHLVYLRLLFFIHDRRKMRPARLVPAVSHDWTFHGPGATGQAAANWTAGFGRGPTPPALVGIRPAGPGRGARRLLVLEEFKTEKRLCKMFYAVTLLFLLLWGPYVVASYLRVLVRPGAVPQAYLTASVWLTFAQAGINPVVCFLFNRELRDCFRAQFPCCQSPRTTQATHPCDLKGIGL
UniProt Q5T601, sequence (whole entry, looked up): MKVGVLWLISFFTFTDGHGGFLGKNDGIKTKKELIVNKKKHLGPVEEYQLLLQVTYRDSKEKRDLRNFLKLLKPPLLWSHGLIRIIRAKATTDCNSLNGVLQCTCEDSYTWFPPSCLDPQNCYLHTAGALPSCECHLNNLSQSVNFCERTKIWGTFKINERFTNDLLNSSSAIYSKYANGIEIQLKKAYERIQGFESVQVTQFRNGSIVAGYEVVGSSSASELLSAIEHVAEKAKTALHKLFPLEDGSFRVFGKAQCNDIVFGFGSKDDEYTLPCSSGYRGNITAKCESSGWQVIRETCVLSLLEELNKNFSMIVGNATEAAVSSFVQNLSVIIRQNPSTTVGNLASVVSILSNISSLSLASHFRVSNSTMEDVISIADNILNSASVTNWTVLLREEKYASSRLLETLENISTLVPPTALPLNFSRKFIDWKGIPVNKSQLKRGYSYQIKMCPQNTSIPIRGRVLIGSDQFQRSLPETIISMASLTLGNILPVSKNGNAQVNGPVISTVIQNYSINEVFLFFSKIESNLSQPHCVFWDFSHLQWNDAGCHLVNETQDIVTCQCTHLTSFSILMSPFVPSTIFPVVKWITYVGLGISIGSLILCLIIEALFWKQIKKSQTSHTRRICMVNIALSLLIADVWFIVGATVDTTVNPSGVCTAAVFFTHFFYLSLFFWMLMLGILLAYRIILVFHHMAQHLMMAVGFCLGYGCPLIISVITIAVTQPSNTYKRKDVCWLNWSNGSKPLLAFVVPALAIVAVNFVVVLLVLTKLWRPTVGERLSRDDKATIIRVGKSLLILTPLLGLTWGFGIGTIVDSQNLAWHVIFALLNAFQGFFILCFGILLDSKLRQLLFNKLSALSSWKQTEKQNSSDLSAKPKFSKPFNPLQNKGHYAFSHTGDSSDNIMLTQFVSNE
UniProt Q9BY21, sequence (whole entry, looked up): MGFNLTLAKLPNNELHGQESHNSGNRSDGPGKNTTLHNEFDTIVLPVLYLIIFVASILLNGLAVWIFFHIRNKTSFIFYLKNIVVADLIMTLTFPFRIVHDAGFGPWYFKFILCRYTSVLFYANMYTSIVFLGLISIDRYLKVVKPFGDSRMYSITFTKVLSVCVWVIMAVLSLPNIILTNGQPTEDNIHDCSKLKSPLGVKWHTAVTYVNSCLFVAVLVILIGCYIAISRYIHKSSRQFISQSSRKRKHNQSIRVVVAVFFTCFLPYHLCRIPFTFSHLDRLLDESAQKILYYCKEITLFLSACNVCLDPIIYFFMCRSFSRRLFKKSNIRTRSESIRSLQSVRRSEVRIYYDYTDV
UniProt Q9H244, sequence (whole entry, looked up): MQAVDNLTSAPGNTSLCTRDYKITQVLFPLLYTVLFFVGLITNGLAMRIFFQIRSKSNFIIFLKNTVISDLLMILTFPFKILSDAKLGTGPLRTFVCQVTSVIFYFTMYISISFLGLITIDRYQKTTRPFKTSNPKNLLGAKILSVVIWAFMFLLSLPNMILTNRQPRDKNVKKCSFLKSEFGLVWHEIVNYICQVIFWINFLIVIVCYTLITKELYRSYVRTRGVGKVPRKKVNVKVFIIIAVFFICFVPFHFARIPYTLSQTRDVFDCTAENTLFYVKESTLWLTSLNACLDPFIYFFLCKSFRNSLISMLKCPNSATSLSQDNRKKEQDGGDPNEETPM
UniProt Q9UIK4, sequence (whole entry, looked up): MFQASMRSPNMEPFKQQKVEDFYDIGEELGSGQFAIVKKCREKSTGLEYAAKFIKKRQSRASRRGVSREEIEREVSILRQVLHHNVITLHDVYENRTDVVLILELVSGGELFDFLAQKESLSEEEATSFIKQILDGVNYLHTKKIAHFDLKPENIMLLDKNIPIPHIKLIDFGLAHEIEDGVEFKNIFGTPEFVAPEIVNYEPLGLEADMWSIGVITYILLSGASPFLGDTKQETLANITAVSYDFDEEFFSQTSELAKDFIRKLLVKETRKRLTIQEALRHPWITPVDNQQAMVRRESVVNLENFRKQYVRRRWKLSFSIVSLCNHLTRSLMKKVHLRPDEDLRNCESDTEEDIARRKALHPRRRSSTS

Study 1 — mode: inhibitor; tested at: 10 µM; reference: control
Target: Diamine acetyltransferase 1 (Homo sapiens, UniProt P21673)
Target sequence (P21673 1-171): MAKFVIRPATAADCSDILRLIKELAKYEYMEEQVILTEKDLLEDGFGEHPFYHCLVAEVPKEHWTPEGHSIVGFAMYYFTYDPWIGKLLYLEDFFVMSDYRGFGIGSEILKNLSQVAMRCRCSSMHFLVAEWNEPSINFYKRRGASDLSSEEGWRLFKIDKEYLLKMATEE
| Compound | remaining activity |
| --- | --- |
| O=C(O)c1ccccc1 | 93.8% |
| CC1(C)[C@H]2CC[C@]1(C)C(=O)C2 | 88.5% |
| COc1cc(/C=C/C=O)ccc1O | 104% |
| O=C(O)CCCCCCCC(=O)O | 99.2% |
| COc1cc(C=CC(=O)O)cc(OC)c1O | 103% |
| OC[C@@]1(O)OC[C@@H](O)[C@@H](O)[C@@H]1O | 104% |
| CC(=O)O[C@@H]1C[C@@H]2CC[C@@]1(C)C2(C)C | 102% |
| CC(C)CCC[C@@H](C)[C@H]1CC[C@H]2[C@@H]3CC[C@H]4C[C@@H](O)CC[C@]4(C)[C@H]3CC[C@]12C | 98.2% |
| CC/C=C\CC1=C(C)CCC1=O | 96.6% |
| C=C1C(=O)O[C@H]2C1CC[C@@](C)(O)C13C=CC(C)(C21)C1(C3)C(=O)O[C@@H]2C3C(C)=CCC3[C@](C)(O)[C@H](OC(C)=O)CC21 (stereo partly shown) | 89.3% |
| COc1cc(C[C@@H](CO)[C@H](CO)Cc2ccc(O)c(OC)c2)ccc1O | 95.1% |

Study 2 — Compound: CC(C)CN(C)c1nc(N)c(C(=O)N=C(N)N)nc1Cl; effect on: β-arrestin recruitment; mode: agonist; method: PRESTO-Tango; tested at: 10 µM; reference: untreated
| target | fold over basal |
| --- | --- |
| P2Y purinoceptor 12 (P2RY12, Homo sapiens, UniProt Q9H244) | 0.76 |
| G-protein coupled receptor 87 (GPR87, Homo sapiens, UniProt Q9BY21) | 1.21 |
| Trace amine-associated receptor 8 (TAAR8, Homo sapiens, UniProt Q969N4) | 0.65 fold |
| HCAR2 (Homo sapiens, UniProt Q8TDS4) | 0.86 fold |
| MRGPRD (Homo sapiens, UniProt Q8TDS7) | 1.1 |
| ADGRF1 (Homo sapiens, UniProt Q5T601) | 0.86 |
| CXCR6 (Homo sapiens, UniProt O00574) | 0.7 |
| Probable G-protein coupled receptor 27 (Homo sapiens, UniProt Q9NS67) | 0.91 |
| LTB4R (Homo sapiens, UniProt Q15722) | 0.7 |

Study 3 — effect on: enzyme activity; mode: inhibitor; tested at: 10 µM
Target: Calcium/calmodulin-dependent protein kinase type II subunit alpha (CAMK2A, Homo sapiens, UniProt Q9UQM7)
UniProt Q9UQM7, sequence (whole entry, looked up): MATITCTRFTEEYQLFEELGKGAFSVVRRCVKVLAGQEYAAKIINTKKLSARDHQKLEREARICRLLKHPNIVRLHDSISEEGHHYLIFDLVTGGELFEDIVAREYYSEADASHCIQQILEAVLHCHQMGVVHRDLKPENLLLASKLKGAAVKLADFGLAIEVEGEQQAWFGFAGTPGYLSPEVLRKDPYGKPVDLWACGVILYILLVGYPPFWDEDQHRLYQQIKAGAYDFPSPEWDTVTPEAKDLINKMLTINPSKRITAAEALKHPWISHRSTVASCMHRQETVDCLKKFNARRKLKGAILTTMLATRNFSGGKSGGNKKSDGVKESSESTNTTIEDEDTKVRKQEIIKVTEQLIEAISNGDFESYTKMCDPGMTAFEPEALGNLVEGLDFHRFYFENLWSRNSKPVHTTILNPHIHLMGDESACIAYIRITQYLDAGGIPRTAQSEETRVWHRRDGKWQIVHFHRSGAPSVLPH
| SMILES | inhibition [%] |
| --- | --- |
| C[C@@]12CC[C@@H]3[C@@](CC[C@H]4[C@@]3(C)CCC[C@@]4(C)C(=O)O)(CC1=O)C2 | 9 |
| O=C1CCCCN1 | -26 |
| O=C(O[C@H]1C[N+]2(CCCOc3ccccc3)CCC1CC2)C(O)(c1cccs1)c1cccs1 | -11 |
| OCc1c[nH]c2ccccc12 | -20 |
| CCCN(CCC)S(=O)(=O)c1ccc(C(=O)O)cc1 | 0 |
| C/C=C1\C(CC(=O)OC[C@H]2O[C@@H](OCCc3ccc(O)cc3)[C@H](O)[C@@H](O)[C@@H]2O)C(C(=O)OC)=CO[C@H]1O[C@@H]1O[C@H](CO)[C@@H](O)[C@H](O)[C@H]1O (stereo partly shown) | 3 |
| C[C@@H]1O[C@@H](OC[C@H]2O[C@@H](Oc3c(-c4ccc(O)cc4)oc4cc(O)cc(O)c4c3=O)[C@H](O[C@@H]3O[C@H](CO)[C@H](O)[C@H](O)[C@H]3O)[C@@H](O)[C@@H]2O)[C@H](O)[C@H](O)[C@H]1O | -33 |
| CC1(C)S[C@@H]2[C@H](NC(=O)[C@H](NC(=O)N3CCN(S(C)(=O)=O)C3=O)c3ccccc3)C(=O)N2[C@H]1C(=O)O | 6 |
| Cc1cccc(CC(=O)O)c1 | -39 |
| COc1cc(C)c2c(=O)cc(C[C@@H](C)O)oc2c1[C@@H]1O[C@H](CO)[C@@H](O)[C@H](O)[C@H]1OC(=O)/C=C/c1ccc(O)cc1 | -18 |
| O=C(Nc1ccc(O)cc1)c1ccccc1O | -5 |

Study 4 — effect on: cell-free assay; method: competition with immobilised ligand; tested at: 1 µM
Compound: C[C@@]1(Cc2ccc(C#N)cc2)C(=O)N(c2cc(Cl)cc(Cl)c2)c2ncc(C(=O)NC3(c4nc(C5CCC5)no4)CC3)n21
| target | remaining binding |
| --- | --- |
| PIK3CA (Homo sapiens, UniProt P42336, E545K) | 94% |
| STK24 (Homo sapiens, UniProt Q9Y6E0) | 93% |
| PRKACB (Homo sapiens, UniProt P22694) | 100% |
| MAP4K1 (Homo sapiens, UniProt Q92918) | 100% |
| MATK (Homo sapiens, UniProt P42679) | 100% |
| PI4KB (Homo sapiens, UniProt Q9UBF8) | 100% |
| PTK2B (Homo sapiens, UniProt Q14289) | 100% |
| LIM domain kinase 1 (LIMK1, Homo sapiens, UniProt P53667) | 90% |
| PIK3CB (Homo sapiens, UniProt P42338) | 97% |
| TEK (Homo sapiens, UniProt Q02763) | 92% |
| IGF1R (Homo sapiens, UniProt P08069) | 100% |
| EPHB3 (Homo sapiens, UniProt P54753) | 99% |
| CDK9 (Homo sapiens, UniProt P50750) | 100% |
| MAPK3 (Homo sapiens, UniProt P27361) | 86% |
| CDK5 (Homo sapiens, UniProt Q00535) | 100% |
| SGK1 (Homo sapiens, UniProt O00141) | 100% |
| DAPK2 (Homo sapiens, UniProt Q9UIK4) | 84% |
| PTK2 (Homo sapiens, UniProt Q05397) | 100% |
| PKMYT1 (Homo sapiens, UniProt Q99640) | 75% |
| CDK11B (Homo sapiens, UniProt P21127) | 100% |
| PIP5K1A (Homo sapiens, UniProt Q99755) | 100% |

A few entries again (study 2):
| target | fold over basal |
| --- | --- |
| CXCR6 (Homo sapiens, UniProt O00574) | 0.7 |
| LTB4R (Homo sapiens, UniProt Q15722) | 0.7 |
| P2Y purinoceptor 12 (P2RY12, Homo sapiens, UniProt Q9H244) | 0.76 |
| G-protein coupled receptor 87 (GPR87, Homo sapiens, UniProt Q9BY21) | 1.21 |
| Probable G-protein coupled receptor 27 (Homo sapiens, UniProt Q9NS67) | 0.91 |
